Measurements from different studies.
Each line is one published result; not all experiments were run side by side. Values joined by “and” are separate records of one study, mostly repeats; a detail may differ. ± gives the spread as reported.
Chain of UniProt P21554 (whole entry, unmodified, looked up): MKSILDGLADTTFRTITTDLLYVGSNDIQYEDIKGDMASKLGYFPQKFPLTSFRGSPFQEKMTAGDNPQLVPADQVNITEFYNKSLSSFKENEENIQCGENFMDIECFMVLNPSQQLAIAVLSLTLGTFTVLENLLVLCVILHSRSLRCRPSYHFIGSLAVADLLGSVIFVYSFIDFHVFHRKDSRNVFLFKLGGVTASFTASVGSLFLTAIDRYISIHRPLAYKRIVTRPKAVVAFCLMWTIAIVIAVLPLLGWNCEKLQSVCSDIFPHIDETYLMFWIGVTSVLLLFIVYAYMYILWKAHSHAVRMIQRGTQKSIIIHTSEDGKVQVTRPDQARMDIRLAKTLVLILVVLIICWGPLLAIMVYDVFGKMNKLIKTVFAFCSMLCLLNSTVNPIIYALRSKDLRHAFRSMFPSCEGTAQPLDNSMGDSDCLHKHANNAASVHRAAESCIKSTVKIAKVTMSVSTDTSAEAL
Chain of UniProt Q9P286 (whole entry, looked up): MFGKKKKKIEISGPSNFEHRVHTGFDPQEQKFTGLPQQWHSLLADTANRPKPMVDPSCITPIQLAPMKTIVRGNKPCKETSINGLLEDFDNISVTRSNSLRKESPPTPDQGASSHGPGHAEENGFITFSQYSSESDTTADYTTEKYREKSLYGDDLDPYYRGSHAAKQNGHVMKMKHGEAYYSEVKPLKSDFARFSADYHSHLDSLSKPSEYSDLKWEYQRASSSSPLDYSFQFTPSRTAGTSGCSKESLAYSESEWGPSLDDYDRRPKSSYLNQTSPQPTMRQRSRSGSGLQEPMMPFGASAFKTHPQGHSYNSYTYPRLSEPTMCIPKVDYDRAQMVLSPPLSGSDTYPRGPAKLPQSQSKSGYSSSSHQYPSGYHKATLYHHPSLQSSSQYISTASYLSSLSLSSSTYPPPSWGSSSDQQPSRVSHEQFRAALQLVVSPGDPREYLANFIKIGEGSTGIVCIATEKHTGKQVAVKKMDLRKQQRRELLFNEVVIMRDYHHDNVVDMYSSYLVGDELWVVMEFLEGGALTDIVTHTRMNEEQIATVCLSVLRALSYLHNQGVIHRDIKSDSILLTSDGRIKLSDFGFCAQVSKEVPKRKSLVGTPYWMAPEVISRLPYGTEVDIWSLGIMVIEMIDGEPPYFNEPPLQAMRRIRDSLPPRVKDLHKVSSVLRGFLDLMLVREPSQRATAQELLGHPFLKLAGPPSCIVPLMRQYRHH
Chain of UniProt O14757 (whole entry, looked up): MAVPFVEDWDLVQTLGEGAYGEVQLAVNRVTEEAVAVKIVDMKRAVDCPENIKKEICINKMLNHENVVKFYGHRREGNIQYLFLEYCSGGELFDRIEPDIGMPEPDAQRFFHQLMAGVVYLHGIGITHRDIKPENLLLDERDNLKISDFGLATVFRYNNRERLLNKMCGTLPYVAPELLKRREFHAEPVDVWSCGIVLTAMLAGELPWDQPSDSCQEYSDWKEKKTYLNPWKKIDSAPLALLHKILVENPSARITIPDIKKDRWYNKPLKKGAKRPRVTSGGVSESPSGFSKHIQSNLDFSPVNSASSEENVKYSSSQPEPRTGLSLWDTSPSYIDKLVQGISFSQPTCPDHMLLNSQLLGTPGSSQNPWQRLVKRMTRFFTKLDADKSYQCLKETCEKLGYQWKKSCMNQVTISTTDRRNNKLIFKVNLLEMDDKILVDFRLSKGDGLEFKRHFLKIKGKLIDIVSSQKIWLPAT
Chain of UniProt P49137 (whole entry, looked up): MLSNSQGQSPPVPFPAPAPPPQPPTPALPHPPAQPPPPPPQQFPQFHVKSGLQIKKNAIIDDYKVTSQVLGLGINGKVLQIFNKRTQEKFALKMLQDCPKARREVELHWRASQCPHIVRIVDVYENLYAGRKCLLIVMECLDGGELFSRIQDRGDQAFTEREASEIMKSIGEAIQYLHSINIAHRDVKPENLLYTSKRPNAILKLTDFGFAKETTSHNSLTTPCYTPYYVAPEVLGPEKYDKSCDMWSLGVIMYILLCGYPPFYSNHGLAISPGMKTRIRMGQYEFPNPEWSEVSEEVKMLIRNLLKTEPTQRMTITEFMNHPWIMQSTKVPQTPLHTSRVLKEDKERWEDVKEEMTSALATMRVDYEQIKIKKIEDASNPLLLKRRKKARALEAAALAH
Chain of UniProt O15146 (whole entry, looked up): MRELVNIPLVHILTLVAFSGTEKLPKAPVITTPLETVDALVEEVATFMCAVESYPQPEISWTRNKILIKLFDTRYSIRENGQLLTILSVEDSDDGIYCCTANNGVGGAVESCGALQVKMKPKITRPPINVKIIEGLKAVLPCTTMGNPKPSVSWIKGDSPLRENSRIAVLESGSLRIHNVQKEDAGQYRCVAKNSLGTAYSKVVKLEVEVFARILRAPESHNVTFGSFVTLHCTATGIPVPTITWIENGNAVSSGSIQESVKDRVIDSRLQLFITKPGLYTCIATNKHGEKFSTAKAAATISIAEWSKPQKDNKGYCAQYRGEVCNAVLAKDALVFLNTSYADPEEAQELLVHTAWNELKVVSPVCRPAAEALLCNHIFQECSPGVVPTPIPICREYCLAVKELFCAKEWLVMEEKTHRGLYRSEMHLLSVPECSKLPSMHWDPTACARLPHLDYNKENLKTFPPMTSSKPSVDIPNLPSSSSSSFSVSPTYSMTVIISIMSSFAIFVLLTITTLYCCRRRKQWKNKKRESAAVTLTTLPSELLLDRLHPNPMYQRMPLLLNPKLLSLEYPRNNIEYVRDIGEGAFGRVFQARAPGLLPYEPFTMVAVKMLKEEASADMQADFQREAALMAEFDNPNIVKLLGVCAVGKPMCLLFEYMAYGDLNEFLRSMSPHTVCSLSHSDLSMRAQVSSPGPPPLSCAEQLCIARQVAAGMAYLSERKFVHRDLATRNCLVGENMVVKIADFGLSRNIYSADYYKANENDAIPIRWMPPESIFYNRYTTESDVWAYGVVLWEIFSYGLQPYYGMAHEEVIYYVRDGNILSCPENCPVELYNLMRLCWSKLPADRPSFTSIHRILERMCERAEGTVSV
Chain of UniProt Q01959 (whole entry, unmodified, looked up): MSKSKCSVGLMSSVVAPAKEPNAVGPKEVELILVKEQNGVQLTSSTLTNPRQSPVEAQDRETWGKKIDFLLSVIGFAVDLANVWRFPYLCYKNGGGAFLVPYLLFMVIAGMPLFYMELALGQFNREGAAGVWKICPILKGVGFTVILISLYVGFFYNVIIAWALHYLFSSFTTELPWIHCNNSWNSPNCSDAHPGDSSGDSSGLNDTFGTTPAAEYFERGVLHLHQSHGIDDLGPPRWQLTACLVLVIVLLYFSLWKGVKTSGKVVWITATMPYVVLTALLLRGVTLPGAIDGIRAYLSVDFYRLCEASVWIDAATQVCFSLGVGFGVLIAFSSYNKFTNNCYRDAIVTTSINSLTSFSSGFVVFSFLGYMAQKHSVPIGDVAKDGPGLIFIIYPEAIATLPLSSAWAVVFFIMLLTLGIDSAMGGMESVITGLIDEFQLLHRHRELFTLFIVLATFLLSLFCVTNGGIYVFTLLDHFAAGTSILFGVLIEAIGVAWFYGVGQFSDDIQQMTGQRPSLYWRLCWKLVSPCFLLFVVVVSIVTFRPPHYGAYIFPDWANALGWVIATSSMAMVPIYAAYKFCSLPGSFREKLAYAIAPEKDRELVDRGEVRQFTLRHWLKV
Chain of UniProt P41143 (whole entry, unmodified, looked up): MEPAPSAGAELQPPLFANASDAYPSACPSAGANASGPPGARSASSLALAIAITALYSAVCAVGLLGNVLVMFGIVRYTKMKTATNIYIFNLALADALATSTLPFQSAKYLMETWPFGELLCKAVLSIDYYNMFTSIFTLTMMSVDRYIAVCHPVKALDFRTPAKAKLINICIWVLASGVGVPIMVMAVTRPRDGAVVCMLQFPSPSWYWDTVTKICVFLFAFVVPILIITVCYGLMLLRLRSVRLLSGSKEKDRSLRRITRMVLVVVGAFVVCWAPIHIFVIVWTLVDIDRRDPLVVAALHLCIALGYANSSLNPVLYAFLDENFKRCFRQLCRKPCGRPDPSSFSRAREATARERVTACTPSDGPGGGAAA
Chain of UniProt P23975 (whole entry, looked up): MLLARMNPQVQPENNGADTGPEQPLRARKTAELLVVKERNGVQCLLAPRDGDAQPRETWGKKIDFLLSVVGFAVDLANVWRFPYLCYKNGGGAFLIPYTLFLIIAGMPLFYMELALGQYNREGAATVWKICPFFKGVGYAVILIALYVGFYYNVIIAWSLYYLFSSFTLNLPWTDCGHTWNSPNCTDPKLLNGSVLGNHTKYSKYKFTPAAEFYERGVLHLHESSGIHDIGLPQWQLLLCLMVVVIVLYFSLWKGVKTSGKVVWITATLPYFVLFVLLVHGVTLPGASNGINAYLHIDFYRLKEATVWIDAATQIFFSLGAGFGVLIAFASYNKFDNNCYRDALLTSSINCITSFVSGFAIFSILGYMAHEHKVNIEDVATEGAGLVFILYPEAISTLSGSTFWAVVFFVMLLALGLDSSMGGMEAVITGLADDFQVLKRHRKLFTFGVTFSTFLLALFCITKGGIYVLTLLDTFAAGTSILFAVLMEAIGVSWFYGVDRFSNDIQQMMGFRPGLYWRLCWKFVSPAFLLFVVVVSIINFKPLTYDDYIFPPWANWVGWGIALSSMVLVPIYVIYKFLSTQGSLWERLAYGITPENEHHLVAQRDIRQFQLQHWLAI

Compound	tested on	test	test system	conditions	how to read	endpoint	value
Cc1ccc2c(C(C[N+](=O)[O-])c3cccs3)c(-c3ccccc3)[nH]c2c1 (stereo not drawn)	CNR1 (Homo sapiens, UniProt P21554, I245A)	β-arrestin recruitment, agonist, luciferase	–	–	–	Emax	63.8%
CCN(CC)C(=O)c1ccc(C(c2cccc(O)c2)N2CC(C)N(Cc3ccccc3)CC2C)cc1 (stereo not drawn)	OPRD1 (Homo sapiens, UniProt P41143, N90S)	receptor activation, agonist	–	–	–	EC50	20 ± 11.9 nM
CC(C)[C@H]1NC(=O)C[C@H]2/C=C/CCSSC[C@@H](NC1=O)C(=O)N[C@H](Cc1cccc3ccccc13)C(=O)NCC(=O)O2	PAK5 (Homo sapiens, UniProt Q9P286)	enzyme activity, inhibitor	–	10 µM	–	inhibition	1.9%
O=[N+]([O-])CC(c1ccco1)c1c(-c2ccccc2)[nH]c2ccccc12 (stereo not drawn)	CNR1 (Homo sapiens, UniProt P21554, I245M)	Gαi1-γ2 dissociation, BRET	–	–	–	Emax	106 ± 5.95%
COc1ccccc1-c1n[nH]c2nc(N[C@H]3CC[C@H](NS(=O)(=O)CC(C)C)CC3)ncc12	–	bead binding, competition bead pull-down, refers to: LINJ.35.3280	Leishmania donovani extract	10 µM	baseline: vehicle	relative abundance	0.84
Cc1sc2c(c1C)C(c1ccc(Cl)cc1)=NC(CC(=O)OC(C)(C)C)c1nnc(C)n1-2 (stereo not drawn)	SLC6A2 (Homo sapiens, UniProt P23975)	ligand displacement, radioligand	–	1 µM	–	inhibition	-10%
CCn1cc(-c2cc([C@@H](C)NC(=O)c3cc(OCCN(C)C)ccc3C)c3ccccc3n2)c(C(F)(F)F)n1	Vero E6	–	–	31.25 µM	–	viability	8.46% and 2.31%
CS(C)(=O)=Nc1ccc(-c2ccc(-c3nc4cc(O[C@@H]5CO[C@H]6[C@@H]5OC[C@H]6O)[nH]c4cc3F)cc2)cc1	CHEK1 (Homo sapiens, UniProt O14757)	enzyme activity, inhibitor	–	10 µM	–	inhibition	-2%
CCOCC1C(c2ccc(Cl)c(Cl)c2)CC2CCC1N2C (stereo not drawn)	SLC6A3 (Homo sapiens, UniProt Q01959, F326A)	dopamine uptake	–	0.004 µM, 0.03333 h, F326A mutant, added: [3H]dopamine	baseline: no inhibitor	remaining activity	12.7%
Nc1ccc(/C=C/C(=O)N2CCc3c(oc4c(-c5ccc(F)cc5)cc(-c5ccc(C(=O)N6CCC(F)(F)CC6)cn5)cc34)C2)cn1	MAPKAPK2 (Homo sapiens, UniProt P49137)	binding, competition with immobilised ligand	–	1 µM	–	remaining binding	95%
O=C1NC2(CC2)COc2ncc(F)cc2[C@H]2COCCN2c2ccn3ncc1c3n2	–	–	Sprague-Dawley rat, male, brain	oral, 10 mg/kg/day, 4 weeks dosing, end of recovery	–	organ-to-body weight ratio	0.412 ± 0.01%
CC(C)CC(C(=O)N1CC2(CC1C#N)C(=O)Nc1ccccc12)N(C)C(=O)c1cc2c(F)cc(F)c(F)c2[nH]1 (stereo not drawn)	Replicase polyprotein 1ab, main protease (rep, Porcine epidemic diarrhea virus, UniProt P0C6Y4)	protease activity, inhibitor	–	10000 µM	–	remaining activity	0%
CN(C)[C@H]1C[C@@]23CC[C@@]4(O2)C(=CC[C@]2(C)[C@@H](c5ccc6ccncc6c5)CC[C@H]24)C=C3[C@@H](O)[C@@H]1O	WNK2 (Homo sapiens, UniProt Q9Y3S1)	ATP probe labelling, inhibitor, KiNativ profiling	–	0.1 µM	–	inhibition	-3.8%
Cc1ccc(N2CCN(C)C3(CC3)C2)cc1C(=O)N[C@H](C)c1cc(-c2cnn(C)c2)nc2ccccc12	Vero E6	–	–	250 µM	–	viability	7.08% and 5.83% and 6.04%
O=C1NC(=O)c2c1c1cc(F)c[n+]3c1c1c2c2cc(O)ccc2[n]1[Ru-4]312([N]=C=S)[S+]3CC[S+]1CC[S+]2CC3 (stereo not drawn)	MUSK (Homo sapiens, UniProt O15146)	enzyme activity	–	100 nM, human enzyme, added: 10 µM ATP	baseline: untreated	remaining activity	113%

For quick reference, copied from above:
Compound	tested on	test	test system	conditions	how to read	endpoint	value
CC(C)[C@H]1NC(=O)C[C@H]2/C=C/CCSSC[C@@H](NC1=O)C(=O)N[C@H](Cc1cccc3ccccc13)C(=O)NCC(=O)O2	PAK5 (Homo sapiens, UniProt Q9P286)	enzyme activity, inhibitor	–	10 µM	–	inhibition	1.9%
